Experimental data gathered from unrelated publications.
Protocols differ between the studies behind these lines. “And” joins repeats or separate records; there may be more than shown. ± marks the error that the study gave.

Under “participants with photophobia”, `C[C@@H](N)C1CCN(S(=O)(=O)c2cccc3cnccc23)CC1` is recorded as 0% (healthy volunteers; 25 mg, fasted).
`O=C(CCCCCCC(=O)Nc1ccc(CC[18F])cc1)NO` has a tissue uptake of 1 ± 0.12 %ID/g (athymic nu/nu male mice, LNCaP xenograft, brain; intravenous, 0.5 h).
`COc1ccc2nc([S@@+]([O-])Cc3ncc(C)c(OC)c3C)[nH]c2c1` has an AUC(0-8 h) of 0.235 µM·h (human male, dried plasma spots; oral, 5 mg racemic omeprazole).
`O=C(O)CCC(=O)O.[2H]C([2H])([2H])Oc1cc(C)c2[nH]ccc2c1CN1CC[C@@H](C2CC2)C[C@H]1c1ccc(C(=O)O)cc1` — result for “subjects with any TEAE”: 75% (multiple ascending dose; healthy Chinese subjects; 200 mg once daily).
`C=CCN1CC(=O)N2[C@@H](Cc3ccc(O)cc3F)C(=O)N(Cc3cccc(N4CC(N5CCN(CC)CC5)C4)n3)C[C@@H]2N1C(=O)NCc1ccccc1`: “treatment-related adverse events” 13.9% (refers to: Diarrhea; advanced solid tumour patients; all doses, dose-escalation part, any grade).
The EDTA-reactive species of `[Cl][89Zr]([Cl])([Cl])[Cl]` is reported as ≥ 99.9% (radio-TLC; ammonium acetate; concentration not given, 0 h after production, pH 7.0, ambient).
With `COc1ccc2c(=O)n(C)c(-c3ccccc3)nc2c1` the tissue concentration was 2.95 ng/mL (Sprague-Dawley rat, male, testis; oral, 30 mg/kg, 0.5 h).
For `CN(C(=O)n1cnc(-c2cccnc2)c1)[C@H]1CC[C@H](O)CC1`, the concentration was 16.9 ± 1.4 ng/g (Wistar rat, pons; oral, 10 mg/kg/day of BIA 10-2474, 24 h, repeated 5 days).
`CC/C(=C(\c1ccccc1)c1ccc(OCCN(C)C)cc1)c1ccccc1` has a heart rate of 222 ± 0.6 beats/min (male Hartley guinea pigs, anaesthetized; intravenous, 3 mg/kg over 10 min, after infusion).
Under “rigid stance score”, `O=C1NCCc2nc(OCc3cccc(F)c3)ccc21` is recorded as 0 (modified Irwin test; Sprague-Dawley rat, male; oral, 100 mg/kg, 30 min; higher = stronger effect).
`O=C(Nc1nc2cccc(-c3ccc(CN4CCS(=O)(=O)CC4)cc3)n2n1)C1CC1` — result for “treatment-emergent adverse events”: 0% (refers to: pharyngitis; human rheumatoid arthritis patients; oral, 300 mg once daily, 4 weeks, regardless of relatedness).
With `CCCCN1CCN(C(C)C(=O)Nc2c(C)csc2C(=O)OC)CC1` (centres unmarked) the MRT(0-t) was 1.56 h (rat (Sprague-Dawley, male), plasma; subcutaneous, 62.3 mmol/L).
`CO[C@H]1C[C@@H]2CC[C@@H](C)[C@@](O)(O2)C(=O)C(=O)N2CCCC[C@H]2C(=O)O[C@H]([C@H](C)C[C@@H]2CC[C@@H](OC(=O)NCCOCCOCCOCCOCCOCCOCCOCCOCCC(=O)N3CCc4cc(Cn5nc(-c6ccc7oc(N)nc7c6)c6c(N)ncnc65)ccc4C3)[C@H](OC)C2)C[C@@H](O)[C@H](C)/C=C(\C)[C@@H](O)[C@@H](OC)C(=O)[C@H](C)C[C@H](C)/C=C/C=C/C=C/1C` has an AUClast of 0.466 µM·h (human patients, plasma; intravenous, 8 mg, cycle 1 day 15, weekly dosing, mean).
For `CCCCOC(=O)N1CCN(C(=O)[C@H](CP(=O)(O)O)NC(=O)c2cc(N3CC[C@H](OC)C3)nc(-c3ccccc3)n2)CC1`, “change in heart rate” read -4.2 ± 8.5 beats/min (human; subcutaneous, 8 mg, 1 h post-dose; reference: baseline).
`CN[C@@H]1COc2c(S(=O)(=O)NC(=O)Nc3c4c(cc5c3CCC5)CCC4)cnn2C1`: “predose plasma concentration” 5170 ng/mL (human, plasma; oral, 900 mg twice daily, D9).
The heart rate of `O=C(CCCN1CC=C(n2c(=O)[nH]c3ccccc32)CC1)c1ccc(F)cc1` is reported as 224 ± 0.9 beats/min (male Hartley guinea pigs, anaesthetized; intravenous, 0.1 mg/kg over 10 min, after infusion).
For `CN[C@H](CC(C)C)C(=O)N[C@H]1C(=O)N[C@@H](CC(N)=O)C(=O)N[C@H]2C(=O)N[C@H]3C(=O)N[C@H](C(=O)N[C@H](C(=O)O)c4cc(O)cc(O)c4-c4cc3ccc4O)[C@H](O)c3ccc(c(Cl)c3)Oc3cc2cc(c3O[C@@H]2O[C@H](CO)[C@@H](O)[C@H](O)[C@H]2O[C@H]2C[C@](C)(N)[C@H](O)[C@H](C)O2)Oc2ccc(cc2Cl)[C@H]1O`, “absorption rate constant” read 0.08 h⁻¹ (electrochemical aptamer sensor; male C57BL/6J mouse, hippocampus; intravenous bolus, 35 mg/kg).
With `Oc1ccc(/C=C/c2cc(O)cc(O)c2)cc1` the LDL-C level was 3 mg/dL (rat, azoxymethane-injected, blood; in vivo, 100 mg/kg, at sacrifice).
`Cc1ccc(C)c(OCCCC(C)(C)C(=O)O)c1`: “trough plasma concentration” 1420 ng/mL (human, plasma; oral, dose not given, day 17 predose, median).
With `COc1cc(N)c(Cl)cc1C(=O)NC1CCN(CCCOc2ccc(F)cc2)CC1OC` (centres unmarked) the heart rate was 247 ± 0.5 beats/min (male Hartley guinea pigs, anaesthetized; intravenous, 0.1 mg/kg group, baseline before infusion).
For `O=C(COc1ccc(Cl)cc1)NC12CC(c3nnc([C@H]4C[C@@H](OC(F)(F)F)C4)o3)(C1)C2`, the Cmax was 1310 nM (healthy human both sexes, plasma; oral, 100 mg once daily, day 1, mean).
Under “nucleoside remaining fraction”, `CO[C@@H]1[C@H](O)[C@@H](CO)O[C@H]1n1c([N+](=O)[O-])nc2c(=O)[nH]c(N)nc21` is recorded as 0.767 (depurination, RP-HPLC; citrate-phosphate buffer 0.5 mM; 255 min, pH 2, 37 °C).
For `O=C(O)c1cc(O)cc(O)c1`, CSF concentration read “not detected” (human CSF; concentration not given, mean).
For `CCN1/C(=C/C(C)=O)Sc2ccc(F)cc21`, the PR interval was 93 ± 6 ms (cynomolgus monkey; oral, 100 mg/kg, 6 h post-dose).
With `N[C@@H]1c2ccccc2OC12CCN(c1cnc3c(N4CCCc5ncccc54)n[nH]c3n1)CC2` the AUC(0-tau) was 3580 ng·h/mL (advanced metastatic solid tumour patients, plasma; oral, 20 mg once daily, cycle 1 day 15, geometric mean).
For `CC(C)(C)c1ccc(C(O)CCCN2CCC(C(O)(c3ccccc3)c3ccccc3)CC2)cc1` (centres unmarked), the heart rate was 188 ± 0.6 beats/min (male Hartley guinea pigs, anaesthetized; intravenous, 3 mg/kg over 10 min, after infusion).
Under “treatment-related serious adverse events”, `C[C@@H](Nc1cc(F)cc(F)c1)c1cc(C(=O)N(C)C)cc2c(=O)cc(N3CCOCC3)oc12` is recorded as 0% (refers to: Clostridioides difficile colitis; patients with advanced solid tumours; oral, dose not given, dose finding phase I).
For `Cc1ccc(C(=O)N(CCCN)C(c2nc3snc(C)c3c(=O)n2Cc2ccccc2)C(C)C)cc1` (centres unmarked), “patients with adverse event” read 0% (stomatitis grade ≥3 (CTCAE); human patients; intravenous, 4 mg/day).
With `Cc1ccnc([18F])c1-c1cccc(N2C[C@H](N3CCN(C(=O)c4nccs4)CC3)CC2=O)c1` the Ktrans was 0.0003 min⁻¹ (PET, two-tissue compartment model; rhesus monkey, brain striatum; intravenous, baseline, arterial input).
`OCc1ccc(-c2nn(Cc3ccccc3)c3ccccc23)o1`: “volume of distribution at steady state” 2.68 L/kg (male CD1 mouse, plasma; intravenous, 5 mg/kg).
For `Cc1ccc([C@@H]2O[C@H](CO)[C@@H](O)[C@H](O)[C@H]2O)cc1Cc1ccc(-c2ccc(F)cc2)s1`, “urinary chloride excretion change” read -26.3 mEq (Japanese type 2 diabetes patients; 100 mg, day 16, 24 h urine collection; reference: baseline).
`O=C(O)c1ccc(O)cc1O` — result for CSF concentration: “not detected” (human CSF; concentration not given, mean).
With `CCN(c1cc(-c2ccc(CN3CCOCC3)cc2)cc(C(=O)NCc2c(C)cc(C)[nH]c2=O)c1C)C1CCOCC1` the organ weight was 150 mg (mouse xenograft, lung; dose not given).
`C[C@@H]1OC(=O)[C@H](Cc2ccccc2)[C@H]1O` gave a KOC of 86 mL/g (FOCUS PEARL groundwater modelling; soil; geometric mean input).
With `CC1(C)OB(/C=C/COc2ccc(OCc3ccccc3)cc2)OC1(C)C` the yield was 98% (oxidative cleavage releasing alcohol, 1H NMR; pH 7.4, with: H2O2).
For `CN(C(=O)n1cnc(-c2ccc[n+]([O-])c2)c1)[C@H]1CC[C@H](O)CC1`, the concentration was 13.8 ± 0.4 ng/g (Wistar rat, midbrain; oral, 10 mg/kg/day of BIA 10-2474, 72 h, repeated 5 days).
`Cc1cn(-c2cc(NC(=O)c3ccc(C)c(Nc4nccc(-c5cccnc5)n4)c3)cc(C(F)(F)F)c2)cn1` — result for “peripheral volume of distribution (V2)”: 224 L (population PK model, bootstrap; human, both sexes, plasma; oral, dose not given).
For `[18F]c1ccc(-c2ccc3c(c2)[nH]c2ccncc23)cn1`, the SUV was 0.453 ± 0.155 (ex vivo biodistribution; B6SJL mouse, normal, thalamus; intravenous, 30 min).
The tissue concentration of `O=C1c2ccncc2C(=O)c2c1[nH]c1ccccc21` is reported as 0.441 ± 0.015 nmol/mg (Sprague-Dawley rat, male, lung; intravenous, 5 mg/kg, 24 h).
For `COc1ncc(-c2nc3c(n2C(C)C)[C@H](c2ccc(Cl)cc2)N(c2cc(Cl)cn(C)c2=O)C3=O)c(OC)n1`, the median half-life was 11 h (human patients, plasma; oral, 50 mg, high-dose arm, cycle 1 day 1).
`CC(C)C[C@H](NC(=O)CNC(=O)c1cc(Cl)ccc1Cl)B(O)O`: “treatment-emergent adverse events” 6% (refers to: Hyperglycaemia; human newly diagnosed multiple myeloma; oral, dose not given, maintenance, grade 3, onset cycle 17 or later).
The concentration of `CCc1c(-c2ccccc2)c(-c2ccccc2)nn1-c1ccccc1-c1cccc(OCC(=O)O)c1` is reported as 253 ng/mL and 324 ng/mL (Sprague-Dawley rat, large intestine homogenate; oral, 10 mg/kg, 4 h).
`COc1ccc([C@@H](O)c2cc(-c3ncnc4cc(N5CCOCC5)ccc34)c(F)cc2Cl)nn1`: “drug-related lymphocyte count decrease” 0% (locally advanced rectal cancer patients; 50 mg, with: capecitabine and radiotherapy).
For `NC1(C(=O)N[C@@H](CCO)c2ccc(Cl)cc2)CCN(c2nc[nH]c3nccc2-3)CC1`, “incidence of Dysgeusia” read 0% (metastatic CRPC patients; dose not given, grade 3 to 4, treatment-related, all doses, with: enzalutamide 160 mg daily).

Some of these lines once more:
`Cc1ccc(C)c(OCCCC(C)(C)C(=O)O)c1`: “trough plasma concentration” 1420 ng/mL (human, plasma; oral, dose not given, day 17 predose, median).
With `COc1cc(N)c(Cl)cc1C(=O)NC1CCN(CCCOc2ccc(F)cc2)CC1OC` (centres unmarked) the heart rate was 247 ± 0.5 beats/min (male Hartley guinea pigs, anaesthetized; intravenous, 0.1 mg/kg group, baseline before infusion).
For `O=C(COc1ccc(Cl)cc1)NC12CC(c3nnc([C@H]4C[C@@H](OC(F)(F)F)C4)o3)(C1)C2`, the Cmax was 1310 nM (healthy human both sexes, plasma; oral, 100 mg once daily, day 1, mean).
Under “nucleoside remaining fraction”, `CO[C@@H]1[C@H](O)[C@@H](CO)O[C@H]1n1c([N+](=O)[O-])nc2c(=O)[nH]c(N)nc21` is recorded as 0.767 (depurination, RP-HPLC; citrate-phosphate buffer 0.5 mM; 255 min, pH 2, 37 °C).
For `O=C(O)c1cc(O)cc(O)c1`, CSF concentration read “not detected” (human CSF; concentration not given, mean).
For `CCN1/C(=C/C(C)=O)Sc2ccc(F)cc21`, the PR interval was 93 ± 6 ms (cynomolgus monkey; oral, 100 mg/kg, 6 h post-dose).
With `N[C@@H]1c2ccccc2OC12CCN(c1cnc3c(N4CCCc5ncccc54)n[nH]c3n1)CC2` the AUC(0-tau) was 3580 ng·h/mL (advanced metastatic solid tumour patients, plasma; oral, 20 mg once daily, cycle 1 day 15, geometric mean).
